Experimental data collected from several papers.
Values joined by “and” are separate records of one study, mostly repeats; a detail may differ. Numbers after ± are the reported error.
Sequence of UniProt P08709 (whole entry, looked up): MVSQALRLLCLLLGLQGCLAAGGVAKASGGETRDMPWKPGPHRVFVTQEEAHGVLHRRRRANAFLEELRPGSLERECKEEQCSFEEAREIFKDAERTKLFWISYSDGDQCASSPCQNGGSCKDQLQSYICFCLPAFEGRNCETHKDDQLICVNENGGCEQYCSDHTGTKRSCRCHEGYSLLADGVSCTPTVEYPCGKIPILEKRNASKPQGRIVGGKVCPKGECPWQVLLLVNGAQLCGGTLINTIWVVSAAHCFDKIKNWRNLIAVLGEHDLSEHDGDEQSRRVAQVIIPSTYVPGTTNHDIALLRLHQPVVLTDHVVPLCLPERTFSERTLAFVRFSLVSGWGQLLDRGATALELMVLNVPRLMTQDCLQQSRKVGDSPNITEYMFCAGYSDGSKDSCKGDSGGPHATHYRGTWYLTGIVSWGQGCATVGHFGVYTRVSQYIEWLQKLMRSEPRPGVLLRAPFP

Cc1ccccc1C(=O)NN=Cc1ccc(O)c(Br)c1 — plasma concentration (normal C3H/HeN mouse, plasma; intravenous, 0.8 mg/kg, 30 min): 72.5 ng/mL
Cc1ccc(F)c2cc(C(=O)N[C@@H]3CCC[C@H](N4CC[C@H](N(C)S(C)(=O)=O)C4)C3)[nH]c12 — plasma concentration (CD1 mouse, plasma; intravenous, 1 mg/kg, 7 h): 6.73 ng/mL
CCCCCc1cc(O)c(C/C=C(\C)CCC=C(C)C)c(O)c1C(=O)O — plasma concentration (LC-MS/MS; Scn1a+/− mice, both sexes, plasma; intraperitoneal, 30 mg/kg, after hyperthermia protocol): 43000 ± 3000 ng/mL
CCN(CC)CCCC[C@H](NC(=O)[C@H](CC(C)C)NC(=O)[C@H](C)NC(=O)[C@H](Cc1ccccc1)NC(=O)c1ccc(C(C)(C)C)cc1)C(=O)N[C@@H](CO)C(=O)OC — plasma concentration (male Swiss Albino mice, plasma; intraperitoneal, 10 mg/kg, 4 h): 28.1 ng/mL
CNC(=O)c1c(N(C)N=O)ncn1C — revertant colonies per plate (Escherichia coli; plate incorporation; WP2uvrA pKM101, water; 150 µg/plate, without S9): 117 ± 12
C[C@]1(CO)Cc2ncn(-c3ccc(C#N)c(Cl)c3)c2C(=O)O1 — Cmax (human, plasma; 80 mg, first dose fasted): 2740 nM
COc1cc2c(Oc3ccc4[nH]c(C)cc4c3F)ccnc2cc1OCC1(N)CC1 — grade 1 or 2 sinus bradycardia (paediatric recurrent refractory sarcoma; 8 mg): 0%
CCCc1cc(O)c(C/C=C(\C)CCC=C(C)C)c(O)c1 — plasma concentration (LC-MS/MS; Scn1a+/− mice, plasma; intraperitoneal, 100 mg/kg, after hyperthermia protocol): 7000 ± 1000 ng/mL
NC(=O)c1cccc(-c2cc(OC(=O)NC3CCCCC3)ccc2O)c1 — plasma concentration (mouse, plasma; oral, 10 mg/kg, 24 h): 1.1 ng/mL
CCCc1cc(O)c(C/C=C(\C)CCC=C(C)C)c(O)c1C(=O)O — plasma concentration (LC-MS/MS; Scn1a+/− mice, plasma; intraperitoneal, 30 mg/kg, after hyperthermia protocol): 181000 ± 18000 ng/mL
[2H]C([2H])([2H])C1(C([2H])([2H])[2H])NC(=O)N(c2ccc(F)c(C(F)(F)F)c2)C1=O — plasma concentration (male Swiss outbred mice, plasma; oral, 100 mg/kg, 1 h): 23300 ± 2790 ng/mL
CO[C@H]1C[C@@H]2CC[C@@H](C)[C@@](O)(O2)C(=O)C(=O)N2CCCC[C@H]2C(=O)O[C@H]([C@H](C)C[C@@H]2CC[C@@H](OC(=O)NCCOCCOCCOCCOCCOCCOCCOCCOCCC(=O)N3CCc4cc(Cn5nc(-c6ccc7oc(N)nc7c6)c6c(N)ncnc65)ccc4C3)[C@H](OC)C2)C[C@@H](O)[C@H](C)/C=C(\C)[C@@H](O)[C@@H](OC)C(=O)[C@H](C)C[C@H](C)/C=C/C=C/C=C/1C — any TEAE incidence (phase 1 dose escalation; advanced solid tumour patients; intravenous, 8 mg weekly, grade ≥3): 68.8%
CCc1ccc(CC/C=C/c2ccc3c(c2)C(=O)CC3)cc1 — APTT (Sprague-Dawley rat, female; oral, 450 mg/kg/day, 14 days): 16 s
Cc1ccc(S(=O)(=O)n2c(N)nc3ccccc32)cc1 — plasma concentration (mouse, plasma; intraperitoneal, 15 mg/kg, 20 min): 1580 ± 60 nM
CN(C)C1(CNC(=O)c2ccc3c(c2)CCN3C(=O)c2ccccc2)CCOCC1 — plasma concentration (male C57BL/6 mice; intraperitoneal, 50 mg/kg, 30 min): 2300 ng/mL
C1=Cc2nc1cc1ccc([n-]1)c(C1CC1)c1nc(cc3ccc([n-]3)c2C2CC2)C=C1.CC(=O)[O-].[Mn+3] — plasma concentration (LC-MS/MS; Sprague-Dawley rat, plasma; oral gavage, dose not given, 240 min, individual rat Rat1): 109 ng/mL
C=C(C)[C@@H]1CCC(C)=C[C@H]1c1c(O)cc(CCC)cc1O — plasma concentration (LC-MS/MS; Scn1a+/− mice, both sexes, plasma; intraperitoneal, 30 mg/kg, after hyperthermia protocol): 3100 ± 300 ng/mL
C1=Cc2nc1cc1ccc([n-]1)c(-c1ccccc1)c1nc(cc3ccc([n-]3)c2-c2ccccc2)C=C1.CC(=O)[O-].[Mn+3] — plasma concentration (LC-MS/MS; Sprague-Dawley rat, plasma; oral gavage, dose not given, 360 min): 94 ng/mL and 135 ng/mL
COc1cc(Nc2ncc(F)c(Nc3ccc4c(n3)NC(=O)C(C)(C)O4)n2)cc(OC)c1OC — IC50 (Coagulation factor VII (F7, Homo sapiens, UniProt P08709)): > 10 µM

For quick reference, copied from above:
CO[C@H]1C[C@@H]2CC[C@@H](C)[C@@](O)(O2)C(=O)C(=O)N2CCCC[C@H]2C(=O)O[C@H]([C@H](C)C[C@@H]2CC[C@@H](OC(=O)NCCOCCOCCOCCOCCOCCOCCOCCOCCC(=O)N3CCc4cc(Cn5nc(-c6ccc7oc(N)nc7c6)c6c(N)ncnc65)ccc4C3)[C@H](OC)C2)C[C@@H](O)[C@H](C)/C=C(\C)[C@@H](O)[C@@H](OC)C(=O)[C@H](C)C[C@H](C)/C=C/C=C/C=C/1C — any TEAE incidence (phase 1 dose escalation; advanced solid tumour patients; intravenous, 8 mg weekly, grade ≥3): 68.8%
